Measured values collected from several papers.
Numbered parts are unrelated; each lists some results of a single study.
Sequence of UniProt Q08881 (whole entry, looked up): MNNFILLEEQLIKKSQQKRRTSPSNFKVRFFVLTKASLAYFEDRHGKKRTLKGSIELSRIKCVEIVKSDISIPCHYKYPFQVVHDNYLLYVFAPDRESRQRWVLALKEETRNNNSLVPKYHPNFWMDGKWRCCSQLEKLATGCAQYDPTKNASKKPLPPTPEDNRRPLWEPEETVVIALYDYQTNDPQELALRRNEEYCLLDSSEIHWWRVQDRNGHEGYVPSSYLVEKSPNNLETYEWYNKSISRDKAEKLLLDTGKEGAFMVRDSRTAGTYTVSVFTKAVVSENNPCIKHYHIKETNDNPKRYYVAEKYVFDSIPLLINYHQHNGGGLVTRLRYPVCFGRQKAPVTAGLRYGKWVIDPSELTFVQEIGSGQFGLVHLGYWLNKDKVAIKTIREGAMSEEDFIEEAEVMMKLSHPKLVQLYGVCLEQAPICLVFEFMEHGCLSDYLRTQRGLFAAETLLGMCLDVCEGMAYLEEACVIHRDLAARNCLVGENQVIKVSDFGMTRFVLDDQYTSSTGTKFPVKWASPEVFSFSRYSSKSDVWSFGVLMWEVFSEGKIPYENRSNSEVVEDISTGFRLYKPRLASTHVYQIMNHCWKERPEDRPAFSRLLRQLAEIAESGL

Sample 1
Target: Sal-like protein 4, full length isoform A (SALL4, Homo sapiens, UniProt Q9UJQ4, residues 1-1053)
Sequence of UniProt Q9UJQ4 (whole entry, looked up): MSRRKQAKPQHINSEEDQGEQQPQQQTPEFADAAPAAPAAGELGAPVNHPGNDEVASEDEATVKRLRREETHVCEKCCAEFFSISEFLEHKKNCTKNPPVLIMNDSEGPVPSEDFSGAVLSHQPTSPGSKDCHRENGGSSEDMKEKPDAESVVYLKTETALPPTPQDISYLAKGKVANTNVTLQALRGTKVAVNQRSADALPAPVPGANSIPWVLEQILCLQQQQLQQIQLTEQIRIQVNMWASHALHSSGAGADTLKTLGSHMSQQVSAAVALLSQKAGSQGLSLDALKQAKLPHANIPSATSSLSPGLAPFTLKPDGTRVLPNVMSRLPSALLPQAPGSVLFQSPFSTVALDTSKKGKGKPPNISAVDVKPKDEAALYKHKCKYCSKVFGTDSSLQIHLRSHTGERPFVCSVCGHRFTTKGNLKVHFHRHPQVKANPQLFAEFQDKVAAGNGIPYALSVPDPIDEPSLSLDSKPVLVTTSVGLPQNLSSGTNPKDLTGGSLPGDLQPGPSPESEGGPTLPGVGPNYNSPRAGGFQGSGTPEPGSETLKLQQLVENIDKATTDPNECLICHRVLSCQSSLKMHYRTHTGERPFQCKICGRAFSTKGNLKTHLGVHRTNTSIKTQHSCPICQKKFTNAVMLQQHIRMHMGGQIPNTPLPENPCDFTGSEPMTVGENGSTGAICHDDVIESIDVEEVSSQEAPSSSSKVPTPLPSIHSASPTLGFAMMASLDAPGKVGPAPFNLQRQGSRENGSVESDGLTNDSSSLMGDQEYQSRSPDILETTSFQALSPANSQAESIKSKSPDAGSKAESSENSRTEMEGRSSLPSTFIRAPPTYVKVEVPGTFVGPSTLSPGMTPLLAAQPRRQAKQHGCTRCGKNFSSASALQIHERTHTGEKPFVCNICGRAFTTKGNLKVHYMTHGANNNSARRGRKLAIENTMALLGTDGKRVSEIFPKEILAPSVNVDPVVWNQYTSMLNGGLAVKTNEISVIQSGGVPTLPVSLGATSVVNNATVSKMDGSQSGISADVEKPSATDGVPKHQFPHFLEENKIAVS
Technique: universal PBM
Form: double-stranded DNA, one strand shown
Matrix: in vitro
Concentration: 600 nM
Setting: 8-mer, flanks averaged, mean of replicates
Reading: higher = stronger binding
Strand | E-score
ATAGTGCA | 0.191
AACTATAA | 0.339
AGGGACCA | -0.252
AGCACCGC | -0.329
CGAATACC | -0.182
ACCGCCCA | -0.33
ACAGAATG | 0.0751
CCTACGGC | -0.269

Sample 2
Target: RING finger protein unkempt homolog, zinc fingers 1-6, GST-SBP tag (UNK, Homo sapiens, UniProt Q9C0B0, residues 30-357)
Technique: RNA Bind-n-Seq
Form: RNA
Matrix: in vitro
Concentration: not given
Setting: RNA with constant flanks, human and mouse sites, ends assumed
Baseline: input RNA pool
Reading: higher = stronger binding
Constant ends, left off below: GGGAGUUCUACAGUCCGACGAUC … CAACAGAGGAUUGAGCAUCA
Target sequence (chain): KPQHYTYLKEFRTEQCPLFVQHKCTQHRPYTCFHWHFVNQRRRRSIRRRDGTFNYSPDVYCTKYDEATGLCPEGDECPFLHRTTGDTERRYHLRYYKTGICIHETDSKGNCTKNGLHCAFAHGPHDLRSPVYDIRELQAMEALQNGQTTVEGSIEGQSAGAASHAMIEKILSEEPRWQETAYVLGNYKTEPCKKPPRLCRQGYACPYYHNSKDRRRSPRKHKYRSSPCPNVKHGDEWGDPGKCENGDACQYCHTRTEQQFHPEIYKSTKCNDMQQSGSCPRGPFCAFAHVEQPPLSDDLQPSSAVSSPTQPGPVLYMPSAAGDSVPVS
Strand | bound/input enrichment [ratio]
UUUAUGACAUGUCCCUUUAUAUUGAAUGCUGUCACAAAGAAUUUGGGAUUAUAUUAUGACAAUAGAAUUCGCAUGUACAGUGAACGAAGAAUCACUGUUCUCUACAGCUUAGUUCAAGGA | 0.287
CCACCAGAUACCGCUGCCAGACUGGGUUGGUCCCAGCCCCUAGGAAACCUUCAAGCUCCUUUAGGUUAUGAUAAAUUUAGCUAUUCUUGGCGGAGCAAAAAGGGAACCAAGUUCCACCAG | 7.46
GAUGAAGUGUUAGUAAAUCACUUCUGUGAAGAAUUUGGGAAGAAAUACAAGCUAGACAUUAAGUCCAAAAUCCGUGCAUUAUUACGACUCUCUCAGGAGUGUGAGAAACUCAAGAAAUUG | 0.269
GACCGGAACCCCUACUACGGGGGCGAGAGCUCCUCCAUCACACCCCUGGAGGAGCUGUAUAAGCGUUUUCAGUUGCUGGAGGGGCCCCCUGAGUCGAUGGGCCGAGGCCGAGACUGGAAU | 0.0832
AGGGCGCAGUUAUGGGUCGCAAGAAGAAGAAGCAGCUCAAGCCGUGGUGCUGGUAUUGUAACAGAGAUUUUGAUGAUGAGAAGAUCCUUAUACAGCACCAAAAAGCAAAGCAUUUUAAAU | 0.289
GAUUGCAUAGCUAAACAUCACAGAGCAUGAUAUUAAAUGGCUGCUAUUUAAAUAAAUAUGUGACCUUGUCCUAAAGCUAUAAUACUGGCCGGGCACAGUGGCUCACGCCUGUAAUCCCAG | 0.398
AAGCCAGAGACAGAGGCUGCAAGAGCACAGCCCACUCCUUCCUCAUCAGCCACACAGAGCAAGCCCACACCAGUUAAGCCAAACUAUGCCCUGAAGUUCACCCUGGCUGGCCACACCAAA | 0.221
GCACACACGGGCGCGCACACACACGCGCGUACACACUGGGUCUCCAGGCAGCGGCCGUCGCCGCAUCCCCGGCAGCAGCUCCAGGCAAAGUGACAGAGGACAGUGCUGCUGUGAGUUUGA | 0.208

Sample 3
Target: Protein max, full length (MAX, Homo sapiens, UniProt P61244-2, residues 1-151)
Technique: protein-binding microarray
Form: double-stranded DNA, one strand shown
Matrix: in vitro
Concentration: not given
Setting: k-mer, scored over probes, only values ≥0.25
Reading: higher = stronger binding
Strand | E-score
AGGTGCAT | 0.333
ACGTGTGA | 0.42
AGCACATG | 0.485
ATGAGCAT | 0.287
ACGAGGAG | 0.358
AAGAGCAC | 0.259
CAACACAC | 0.251
CGTGGGCA | 0.352

Other studies, line by line
Compound | target | read-out | mode | concentration | baseline | quantity | value
N#C/C(=C(/N)SC1C=CC=CC1)c1cccc(C(O)c2ccncc2)c1 (stereo not shown) | Tyrosine-protein kinase ITK/TSK (ITK, Homo sapiens, UniProt Q08881) | enzyme activity | inhibitor | 0.5 µM | control | remaining activity | 92.3%
